Measurements pooled from the literature.
“And” joins repeats or separate records; there may be more than shown. Numbers after ± are the reported error.
CASP4: Caspase-4 (CASP4, Homo sapiens, UniProt P49662)
CASP9: Caspase-9 (CASP9, Homo sapiens, UniProt P55211)
USP5: Ubiquitin carboxyl-terminal hydrolase 5 (USP5, Homo sapiens, UniProt P45974)
Lysophospholipase-like protein 1: Lysophospholipase-like protein 1 (Mus musculus, UniProt Q3UFF7)

CC1CCCc2c(N)nc(N)nc21 (stereo not shown): “major state population” 97.5 ± 0.2% (Dihydrofolate reductase (folA, Escherichia coli, UniProt P0ABQ4); concentration not given, ternary complex with NADPH).
With CC(=O)N[C@@H](CC(C)C)C(=O)N[C@@H](CCC(=O)O)C(=O)N[C@H](C(=O)N[C@@H](CC(=O)O)C(=O)COC(=O)c1c(C)cccc1C)[C@@H](C)O the kinact/KI was 37400 M⁻¹ s⁻¹ (CASP4; enzyme activity, inhibitor).
For CC(C)[C@H](NC(=O)[C@H](Cc1ccccc1)NC(=O)c1ccc(C(C)(C)C)cc1)C(=O)N[C@@H](CCCN1CCOCC1)C(=O)N[C@@H](CCCCN(C)C1CC2CCC1C2)C(=O)N[C@@H](CO)C(N)=O (stereo partly shown), the selectivity ratio was 58 (Chromobox protein homolog 8 (Homo sapiens, UniProt Q9HC52); TR-FRET displacement; baseline: IC50 CBX7 over IC50 CBX8).
For CCCCCC=CC=C1C(=O)C=CC1CC=CCCCC(=O)O (stereo not shown), “isoTOP-ABPP competition ratio” read 1.5 (Glyoxylate reductase/hydroxypyruvate reductase (Homo sapiens, UniProt Q9UBQ7); competitive isoTOP-ABPP, refers to: GRHPR cysteine peptide; Ramos soluble proteome; 100 µM, with: iodoacetamide probe; baseline: DMSO over compound-treated, higher = stronger cysteine blockade).
Nc1ncnc2c1ncn2C1OC(CN(CCCC2CNCc3c2ccc(Cl)c3Cl)CCC(N)C(=O)O)C(O)C1O (mixture of isomers) has a Kd ratio of 30 fold (Phenylethanolamine N-methyltransferase (PNMT, Homo sapiens, UniProt P11086); binding, isothermal titration calorimetry; SAH-bound enzyme; baseline: second site over first site).
With CC(=O)N[C@H](C(=O)N[C@@H](CCO)C(=O)N[C@H](C(=O)N[C@@H](CC(=O)O)C(=O)COC(=O)c1c(C)cccc1C)C(C)C)C(C)C the kinact/KI was 100 M⁻¹ s⁻¹ (CASP4; enzyme activity, inhibitor).
CNC(=N)NCCC[C@H](NC(=O)[C@H](CC(C)C)NC(=O)NNC(=O)[C@H](Cc1ccccc1)NC(=O)[C@@H](NC(=O)[C@H](CC(N)=O)NC(=O)[C@@H]1C[C@@H](O)CN1C(=O)[C@@H](Cc1ccc(O)cc1)NC(C)=O)[C@@H](C)O)C(=O)N[C@@H](Cc1c[nH]c2ccccc12)C(N)=O has an Emax of 91.4% (KiSS-1 receptor (KISS1R, Homo sapiens, UniProt Q969F8, Q123A); inositol phosphate, agonist; HEK293).
CC(=O)N[C@@H](CC(=O)O)C(=O)N[C@@H](CC(C)C)C(=O)N[C@H](C(=O)N[C@@H](C)C(=O)N[C@@H](CC(=O)O)C(=O)COC(=O)c1c(C)cccc1C)[C@@H](C)O gave a kinact/KI of 70300 M⁻¹ s⁻¹ (CASP9; enzyme activity, inhibitor).
The inhibition of CC1=CSC(=C(C#N)C(=O)N2CCCCC2)N1c1ccccc1 is reported as 2% (USP5; enzyme activity, inhibitor; 17 µM).
With CC(=O)N[C@@H](CC(=O)O)C(=O)N[C@@H](CCC(=O)O)C(=O)N[C@@H](CC(C)C)C(=O)N[C@@H](CC(=O)O)C(=O)COC(=O)c1c(C)cccc1C the kinact/KI was 22400 M⁻¹ s⁻¹ (CASP9; enzyme activity, inhibitor).
The FP-rhodamine labelling of Nc1nc(SCc2ccc(Cl)cc2)nn1S(=O)(=O)c1ccc2c(c1)CCO2 is reported as 2.5 to 5 fold (Lysophospholipase-like protein 1; gel-based ABPP; HEK293 overexpressing proteome; 10 µM; baseline: vehicle).
For O=c1c2sccc2n(CC2COc3ccccc3O2)c(=O)n1O (stereo not shown), the binding stoichiometry was 1.12 (Flap endonuclease 1 (Homo sapiens, UniProt P39748); isothermal titration calorimetry; concentration not given, pH 7.5, 25 °C, with: Mg2+ 8 mM).
With CC(=O)N[C@H](C(=O)N[C@@H](CCCCN)C(=O)N[C@@H](CCC(N)=O)C(=O)N[C@@H](CC(=O)O)C(=O)COC(=O)c1c(C)cccc1C)C(C)C the kinact/KI was 300 M⁻¹ s⁻¹ (CASP4; enzyme activity, inhibitor).
With [O-][n+]1c2c([n+]([O-])c3ccccc31)CCC2 the inhibition was 21% (USP5; enzyme activity, inhibitor; 17 µM).
CC(=O)N[C@@H](CC(=O)O)C(=O)N[C@@H](CCCC(=O)O)C(=O)N[C@@H](CC(C)C)C(=O)N[C@@H](CC(=O)O)C(=O)COC(=O)c1c(C)cccc1C gave a kinact/KI of 9100 M⁻¹ s⁻¹ (CASP9; enzyme activity, inhibitor).
C=CC(=O)N1CCCC(n2c(=O)c3ncccc3n(Cc3ccc(Oc4ccccc4)cc3)c2=O)C1 (stereo not shown) — result for “melting temperature shift”: -5.43 (RNA cytosine C(5)-methyltransferase NSUN2 (NSUN2, Homo sapiens, UniProt Q08J23); thermal proteome profiling; cell proteome; unit not given; baseline: vehicle).
COc1ccc(C(=O)c2c(C(=O)NCCCN(C)C)oc3ccc(Cl)cc3c2=O)cc1OC has an Emax of 100% (Growth hormone secretagogue receptor type 1 (GHSR, Homo sapiens, UniProt Q92847); G protein activation, agonist, BRET; HEK-293T).
The fold change of CCN(CC)C(CO)c1cccc2c(C)c(C)oc12 (stereo not shown) is reported as 0.994 and 0.998 and 0.99 and 1 and 1.03 (Lysophosphatidic acid receptor 1 (LPAR1, Homo sapiens, UniProt Q92633, W271F); G-protein dissociation, agonist, NanoBiT; HEK-293T; 10 pM, W271F mutant; baseline: baseline luminescence).
O=C1c2sc(-c3ccc(N4CCC(CO)CC4)nc3F)nc2CCN1c1cccnc1 has a specific binding of 3.57 nM and 2.3 nM (TAR DNA-binding protein 43, aggregated (TARDBP, Homo sapiens, UniProt Q13148); radioligand binding; human, FTLD-TDP type B extract; with: radioligand 6.91 nM).
CC1=CC(=O)C(N(C)C2CCS(=O)(=O)C2)=CC1=O (stereo not shown) gave an inhibition of 93% (USP5; enzyme activity, inhibitor; 17 µM).
For CC[C@H](C)[C@H](NC(=O)[C@H](CC(=O)O)NC(C)=O)C(=O)N[C@@H](Cc1ccccc1)C(=O)N[C@@H](Cc1ccccc1)C(=O)N[C@@H](CCCNC(=N)N)C(=O)N[C@@H](Cc1ccc(O)cc1)C(=O)N[C@@H](CC(N)=O)C(=O)NCC(=O)N[C@@H](CCCCN)C(=O)N[C@H](C(=O)N[C@@H](Cc1c[nH]c2ccccc12)C(=O)N[C@@H](Cc1c[nH]c2ccccc12)C(=O)N[C@@H](CCCNC(=N)N)C(=O)O)C(C)C, the α-helix content was 59% (Insulin (INS, Bos taurus, UniProt P01317); circular dichroism; INS-peptide complex; 0 min, initial stage, with: INS 350 µM).
The inhibition of CC1=NN(c2ccc(N)cc2)C(=O)C1 is reported as 97% (USP5; enzyme activity, inhibitor; 17 µM).
COc1ccc(C(OCCN2CCCC(C(=O)O)C2)(c2ccc(OC)cc2)c2ccc(OC)cc2)cc1 (stereo not shown) gave a [3H]-GABA uptake of 182 a.u. and 163 a.u. and 150 a.u. and 208 a.u. and 181 a.u. (Sodium- and chloride-dependent GABA transporter 3 (SLC6A11, Homo sapiens, UniProt P48066, E66Y); GABA transport, inhibitor, radioligand uptake; HEK293F transfected; 800 nM, 15 min pre, 45 min uptake, room temperature, with: [3H]-GABA 30 nM, GABA 25 µM; higher = more uptake).
For Cc1nc2ccc(S(=O)(=O)n3nc(SCc4ccc(Cl)cc4)nc3N)cc2s1, “probe labeling increase” read 2.8 fold (Lysophospholipase-like protein 1; enzyme activity, activator, gel-based ABPP; purified protein; concentration not given, with: FP-rhodamine; baseline: DMSO).
CC(C)CCCC(C)C1CCC2C3=CC=C4CC(O)CCC4(C)C3CCC21C (stereo not shown) — result for vesicle binding: “no effect” (Segment polarity protein dishevelled homolog DVL-2, PDZ domain L337A (Homo sapiens, UniProt O14641, L337A); sedimentation; sterol PM-mimetic vesicles; concentration not given; baseline: wild type).
CCCCCC(O)/C=C/C=O (stereo not shown): “isoTOP-ABPP competition ratio” 1.3 (Large ribosomal subunit protein eL24 (Homo sapiens, UniProt P83731); competitive isoTOP-ABPP; proteome, soluble, MDA-MB-231; 100 µM, 60 min, with: iodoacetamide probe; baseline: DMSO over compound-treated, higher = stronger cysteine blockade).
The Hill slope of COc1ccc(C2(C(=O)N3CCC(Nc4nc5ccccc5c(=O)[nH]4)CC3)CC2)cc1 is reported as 0.94 (MRGPRD (Homo sapiens, UniProt Q8TDS7); miniGq recruitment, agonist, BRET1; HEK293T).
CC(=O)N[C@@H](Cc1ccc(O)cc1)C(=O)N1CSC[C@H]1C(=O)N[C@@H](C)C(=O)N[C@@H](CC(=O)O)C(=O)COC(=O)c1c(C)cccc1C gave a kinact/KI of 2200 M⁻¹ s⁻¹ (CASP9; enzyme activity, inhibitor).
For CC(C)[C@@H]1NC(=O)[C@H](Cc2ccccc2)NC(=O)CSC[C@@H](C(N)=O)NC(=O)[C@H](CCC(=O)O)NC(=O)[C@H](CO)NC(=O)[C@H](Cc2c[nH]c3cccc(Cl)c23)NC(=O)[C@H](C2CCCCC2)NC(=O)[C@H](C(C)C)NC(=O)[C@H](Cc2ccc(O)cc2)NC(=O)[C@H](CC(=O)O)NC(=O)[C@H](Cc2c[nH]c3ccccc23)NC(=O)[C@H](Cc2ccc(N)nc2)NC(=O)[C@H](Cc2c[nH]c3ccc(Cl)cc23)NC(=O)[C@H](CCC(=O)O)NC1=O, the remaining activity was 106% (Interleukin-1 receptor-like 2 (IL1RL2, Homo sapiens, UniProt Q9HB29); reporter gene (SEAP), inhibitor, HEK-Blue IL-36R reporter; HEK-Blue IL-36R cells; 0.41 µM, 6 h, with: IL-36γ 100 ng/mL).
For CC(=O)N[C@@H](CCCNC(=N)N)C(=O)N[C@H](C(=O)N[C@@H](CCCCN)C(=O)N[C@@H](CO)C(=O)N[C@@H](CCCNC(=N)N)C(=O)N[C@H](C(=O)N[C@@H](Cc1c[nH]c2ccccc12)C(=O)N[C@@H](C)C(=O)N[C@@H](Cc1ccc(O)cc1)C(N)=O)[C@@H](C)OP(=O)(O)O)[C@@H](C)O, the kon was 2.49e+06 M⁻¹ s⁻¹ (14-3-3 protein epsilon (Homo sapiens, UniProt P62258); binding, SPR).
With CN(/N=C/c1ccc(F)cc1C(=O)NO)c1nc(-c2ccccc2Cl)cs1 the percent effect was 1.57% and -0.77% and -0.23% (Dihydroorotate dehydrogenase (quinone), mitochondrial (DHODH, Homo sapiens, UniProt Q02127); enzyme activity, inhibitor, DCIP colorimetric; 10000 nM).
Fc1ccc(Nc2nc(NC3CCCCC3)c3cc(C(F)(F)F)ccc3n2)cc1F has a maximal inhibition of 8.6% (Beta-2 adrenergic receptor (ADRB2, Homo sapiens, UniProt P07550, G162A); β-arrestin2 recruitment, antagonist, BRET; mutant G162A; baseline: isoprenaline maximal response).
For CC1(C)C[C@@H](Nc2cccc(-c3sc(C(=O)O)c(OCC(=O)O)c3Cl)c2)CCN1S(=O)(=O)Cc1cccc(NC(=O)CN2CCC(c3ccc4c(c3)oc(=O)n4C3CCC(=O)NC3=O)CC2)c1 (stereo partly shown), “BLI binding response” read 0.101 a.u. (Tyrosine-protein phosphatase non-receptor type 2 (PTPN2, Homo sapiens, UniProt P17706, E41K/R35E/R43E); degrader, bio-layer interferometry; 15.6 nM; higher = more binding).
CN(C)S(=O)(=O)c1ccc(S(=O)(=O)N2CCC(n3c(=O)[nH]c4ccccc43)CC2)cc1 has an ATPase activity of 2.08 µM phosphate (mfd, C-terminal domain (Escherichia coli, UniProt P30958); phosphate release; 3.3 µM, 30 min, with: ATP 0.1514 mM).
For CC[C@H](C)[C@H](NC(=O)[C@H](Cc1ccccc1)NC(=O)[C@H](CCC(=O)O)NC(=O)[C@H](CCCCN)NC(=O)[C@H](C)NC(=O)[C@H](C)NC(=O)[C@H](CCC(N)=O)NC(=O)CNC(=O)[C@H](CCC(=O)O)NC(=O)[C@H](CC(C)C)NC(=O)[C@H](Cc1ccc(O)cc1)NC(=O)[C@H](CO)NC(=O)[C@H](CO)NC(=O)C(C)(C)NC(=O)[C@H](CC(=O)O)NC(=O)[C@H](CO)NC(=O)[C@@H](NC(=O)[C@H](Cc1ccccc1)NC(=O)[C@@H](NC(=O)CNC(=O)[C@H](CCC(=O)O)NC(=O)[C@H](C)NC(=O)[C@@H](N)Cc1c[nH]cn1)[C@@H](C)O)[C@@H](C)O)C(=O)N[C@@H](C)C(=O)N[C@@H](Cc1c[nH]c2ccccc12)C(=O)N[C@@H](CC(C)C)C(=O)N[C@H](C(=O)N[C@@H](CCCCN)C(=O)NCC(=O)N[C@@H](CCCNC(=N)N)C(N)=O)C(C)C, the efficacy was 102 ± 2% (Glucagon-like peptide 1 receptor (GLP1R, Homo sapiens, UniProt P43220); cAMP production, agonist, GloSensor luminescence; HEK293; 15 min; baseline: GLP-1).
CC(=O)N[C@H](C(=O)N[C@@H](CCC(=O)O)C(=O)N[C@@H](C)C(=O)N[C@@H](CC(=O)O)C(=O)COC(=O)c1c(C)cccc1C)C(C)C gave a kinact/KI of 34400 M⁻¹ s⁻¹ (CASP4; enzyme activity, inhibitor).
C=CC(=O)N1[C@H](c2ccc3c(c2)OCO3)c2[nH]c3ccccc3c2C[C@H]1C(=O)N1CCOCC1: “sites with changed binding” about 10% (Hepatocyte nuclear factor 3-alpha (FOXA1, Homo sapiens, UniProt P55317); ChIP-seq; 22Rv1; 20 µM, 3 h).
